Published values pooled from the literature.
Parts stem from different laboratories: compare values within a part only.

Block 1 — technique: protein-binding microarray; form: double-stranded DNA, one strand shown; sample: in vitro; concentration: not given; direction: higher = stronger binding
Target: Transcriptional repressor CTCF (CTCF, Homo sapiens, UniProt P49711, residues 1-727, full length assumed)
Setting: k-mer, scored over probes, only values ≥0.25
Construct (chain): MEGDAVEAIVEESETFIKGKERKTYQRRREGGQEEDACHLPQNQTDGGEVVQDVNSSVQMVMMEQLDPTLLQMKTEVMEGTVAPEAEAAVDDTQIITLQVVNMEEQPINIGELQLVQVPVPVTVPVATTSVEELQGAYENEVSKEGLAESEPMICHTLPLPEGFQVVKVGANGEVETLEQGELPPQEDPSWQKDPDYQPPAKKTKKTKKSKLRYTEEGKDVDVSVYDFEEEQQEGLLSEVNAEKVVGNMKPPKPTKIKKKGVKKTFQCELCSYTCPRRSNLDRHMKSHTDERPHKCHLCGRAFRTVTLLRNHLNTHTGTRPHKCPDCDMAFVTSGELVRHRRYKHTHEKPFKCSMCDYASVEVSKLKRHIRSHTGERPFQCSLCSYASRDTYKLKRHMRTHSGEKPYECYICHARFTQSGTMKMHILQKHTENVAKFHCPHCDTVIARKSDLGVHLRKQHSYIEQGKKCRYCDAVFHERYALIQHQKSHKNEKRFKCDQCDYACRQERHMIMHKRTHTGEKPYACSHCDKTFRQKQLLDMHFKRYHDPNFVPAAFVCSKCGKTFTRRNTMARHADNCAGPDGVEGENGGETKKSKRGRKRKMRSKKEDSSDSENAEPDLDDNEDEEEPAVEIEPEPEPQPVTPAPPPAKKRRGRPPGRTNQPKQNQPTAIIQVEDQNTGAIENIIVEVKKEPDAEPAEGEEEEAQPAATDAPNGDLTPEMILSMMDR
The E-score of `ATACTCGC` is reported as 0.304.
`TACAGGTA` gave an E-score of 0.26.
With `ATATATCG` the E-score was 0.265.
The E-score of `GTGTGTAA` is reported as 0.28.
For `ATAAATAT`, the E-score was 0.354.
`GCGCGTGA` gave an E-score of 0.284.
With `GGGGGATA` the E-score was 0.341.
For `CCATAACA`, the E-score was 0.266.

Block 2 — technique: RNA Bind-n-Seq; form: RNA; sample: in vitro; concentration: 200 nM; setting: whole 134-nt RNA, ends assumed; with: 150 mM KCl; baseline: input library; direction: higher = stronger binding
Target: Fragile X messenger ribonucleoprotein 1, C-terminal low-complexity region (Fmr1, Mus musculus, UniProt P35922)
`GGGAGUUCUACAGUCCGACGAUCAAGUCCUGUGCUACACAUCGUAUGUACCGAAUCGGGUUUUUUUGGGUUUGGGUGGGAAAGUAUUAUGUUACGCCGUUCGGAUCUGCACUUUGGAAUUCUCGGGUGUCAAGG` gave a log2 enrichment of 1.02.
`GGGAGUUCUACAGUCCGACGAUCUAACUUUAGAGGAGGAUCUGAUGGAUAUGGCAGUGGACGUGGAUUUGGGGAUGGCUAUAAUGGGUAUGGAGGAGGACCUGUAGGUGGCAAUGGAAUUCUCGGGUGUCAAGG` gave a log2 enrichment of 0.141.
`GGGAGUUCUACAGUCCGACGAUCACCAUGCAGGUGGGCAUCUUUGGAAAGUGGGGCAAGGGGGGGAUAGGGAGGGGGGUAACACUUUGGGAACAGGUGGUCCCAGGUCGUUUCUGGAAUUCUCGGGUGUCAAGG` has a log2 enrichment of 0.753.
`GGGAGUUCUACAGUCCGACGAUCACCAUGCAGGUGGGCAUCUUUGGGAAGUGGGGCAAGGGGGUGAUAGGGAGGGGGGUAACACUUUGGGAACAGGUGGUCCCAGGUCGUUUCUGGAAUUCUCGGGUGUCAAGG` gave a log2 enrichment of 0.75.
For `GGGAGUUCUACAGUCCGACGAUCUCCUCAAGUCCUGUGCUACACAUCGUAUGUACCGAAUCGGGGAGGGAGGAGGAAAGUAUUAUGUUACGCCGUUCGGAUCUGCACUUCCAGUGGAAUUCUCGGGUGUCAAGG`, the log2 enrichment was 0.346.
With `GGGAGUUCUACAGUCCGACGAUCACCAUGCAGAAAGGCAUCUUUGGGAAGUGGGGCAAGGGGGGGAUAGGGAGGGGGGUAACACUUUGGGAACAGGUGGUCCCAGGUCGUUUCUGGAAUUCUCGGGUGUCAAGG` the log2 enrichment was 1.01.
`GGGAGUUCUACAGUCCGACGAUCAAGUCCUGUGCUACACAUCGUAUGUACCGAAUCGGGAAAAAGGGUUUUUGGGAGGGAAAGUAUUAUGUUACGCCGUUCGGAUCUGCACUUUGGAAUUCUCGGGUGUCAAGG` has a log2 enrichment of 0.719.
`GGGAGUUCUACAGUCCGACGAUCGCAGGAAGUAAAAACAAAUGGGAAUGCUUCGGAUAGUGGCAGGGGUGGGGGUUGCUAAGGAAAGGGUGGGAUGGGAGUGGGUAAAGAGUUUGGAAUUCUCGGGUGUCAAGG` has a log2 enrichment of 0.189.

Block 3 — technique: protein binding microarray; form: double-stranded DNA, one strand shown; sample: in vitro; concentration: not given; baseline: not given; direction: higher = stronger binding
Target: Histone acetyltransferase KAT6A, winged helix 2, GST fusion (KAT6A, Homo sapiens, UniProt Q92794, residues 85-181)
Setting: 8-mer, flanks averaged, mean of 2 arrays, mostly near background
Target sequence (chain): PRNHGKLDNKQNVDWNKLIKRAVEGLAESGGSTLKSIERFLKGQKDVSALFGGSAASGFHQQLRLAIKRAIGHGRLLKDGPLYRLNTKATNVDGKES
`CCCTTAGG` gave an E-score of 0.101.
With `CATTGCCG` the E-score was -0.0396.
The E-score of `CTCTGTGA` is reported as 0.054.
`TAACCATA` gave an E-score of -0.181.
For `CGACGATA`, the E-score was 0.0707.
`CCTCACGA` gave an E-score of -0.0274.
`ATGCGTAG` has an E-score of -0.0617.

Other studies, line by line
`PhoQ, residues 284 288 289 292 302 303 MLMVEA` has a fold induction of 10.7 (PhoP, residues 12 14 15 18 19 LWHSL (Escherichia coli, UniProt P23836); Sort-seq, measured: YFP reporter; E. coli; PhoQ-PhoP variant library, with: 10 µM Mg2+; baseline: high Mg2+ state, higher = stronger signaling).

Some of these lines once more (other studies, line by line):
`PhoQ, residues 284 288 289 292 302 303 MLMVEA` has a fold induction of 10.7 (PhoP, residues 12 14 15 18 19 LWHSL (Escherichia coli, UniProt P23836); Sort-seq, measured: YFP reporter; E. coli; PhoQ-PhoP variant library, with: 10 µM Mg2+; baseline: high Mg2+ state, higher = stronger signaling).
